{"data": "Published values collected from several papers", "note": "A part holds a random share of what one study measured. Changes are numbered by the printed parent chain."}
{"data": "Series 1", "target": "Histone acetyltransferase KAT6A, winged helix 2, GST fusion (KAT6A, Homo sapiens, UniProt Q92794, residues 85-181)", "method": "protein binding microarray", "molecule type": "double-stranded DNA, one strand shown", "matrix": "in vitro", "tested at": "not given", "notes": "8-mer, flanks averaged, mean of 2 arrays, mostly near background", "baseline": "not given", "reading": "higher = stronger binding", "Construct (chain)": "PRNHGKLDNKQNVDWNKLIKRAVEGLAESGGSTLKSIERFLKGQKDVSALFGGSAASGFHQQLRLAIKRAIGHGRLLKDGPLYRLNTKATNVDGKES"}
{"Strand": "GGTGGTCA", "E-score": -0.156}
{"Strand": "AATAAACT", "E-score": 0.0757}
{"Strand": "ACCCCAAT", "E-score": -0.279}
{"Strand": "CCCGTCGC", "E-score": 0.14}
{"Strand": "GCAGCGGC", "E-score": 0.172}
{"Strand": "TGAAGTAA", "E-score": -0.113}
{"Strand": "GATGTCCC", "E-score": 0.00831}
{"Strand": "GGGTGACC", "E-score": 0.126}
{"Strand": "ACGCGCCC", "E-score": 0.143}
{"Strand": "GCCGCAAA", "E-score": 0.167}
{"Strand": "CATCACAA", "E-score": 0.0852}
{"Strand": "GATGACCA", "E-score": -0.0369}
{"Strand": "GGTCTAAA", "E-score": -0.00867}
{"Strand": "AGGCTACA", "E-score": 0.0166}
{"Strand": "ACAAGCCG", "E-score": 0.126}
{"Strand": "CCGTGCTA", "E-score": -0.145}
{"Strand": "AGGATGCA", "E-score": 0.0976}
{"Strand": "CGGCCTTA", "E-score": 0.176}
{"Strand": "CCAACTCG", "E-score": 0.0315}
{"Strand": "CCGCCGAG", "E-score": 0.249}
{"Strand": "CTAGCCAA", "E-score": 0.0315}
{"Strand": "GGGTCCCA", "E-score": 0.00297}
{"Strand": "AACGTAGA", "E-score": -0.126}
{"Strand": "GCTGAAAA", "E-score": 0.114}
{"Strand": "CAACATCC", "E-score": -0.103}
{"data": "Series 2", "target": "RNA binding protein fox-1 homolog 2, RRM domain, GST-SBP tag (RBFOX2, Homo sapiens, UniProt O43251-10, residues 100-194)", "method": "RNA Bind-n-Seq", "molecule type": "RNA", "matrix": "in vitro", "tested at": "365 nM", "notes": "natural RNA segment, single round, ends assumed", "baseline": "no-protein control", "reading": "higher = stronger binding", "constant ends, left off below": "GGGAGUUCUACAGUCCGACGAUC … UGGAAUUCUCGGGUGCCAA", "Residues (chain)": "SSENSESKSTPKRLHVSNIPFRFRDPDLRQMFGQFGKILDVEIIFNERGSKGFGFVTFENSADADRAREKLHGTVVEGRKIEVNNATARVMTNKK"}
{"Strand": "CGUGAUAUGGGGUAAGGAGGUGCUUUUUUAAAAUCGUUCAUAGACUUCUGUAAAAUGCAAGAUAAAUUAAAGUUAUUAUAACAGUGAUUCUUUCAAUUUGGUUUGUCCUU", "RBNS enrichment (R)": 0.774}
{"Strand": "UAAGGAGACUUCCUGUGGGUUGCCAUGUCGCACGUCCGUUAGAUCUUGAUUUUACAGGUGAGGGUGGUUGCCAAAGGUGAUAAGAAAAGCAGCCAACAGGCUCCCUCUCA", "RBNS enrichment (R)": 1.4}
{"Strand": "GGCUACCUGAGUACACCCCGCGCACCCUUGAGCAGGCCGGCCCUCCCCUCGUGGCAGCUGUCCUUUCCACGUGCACUGGGACCAGAAGUCAGACAAGGAAUUUAGGAAGC", "RBNS enrichment (R)": 0.218}
{"Strand": "CCGGACCCCGUUGUGAGCCGGCCUCCUGUCUGCAUGCCCCCUGUGGCCACCAGGCUCCGAGGGGCCGUGGUGACUCUUGAUCAAAGAGCACAGUGAACUGUCCCUUCUGA", "RBNS enrichment (R)": 7.58}
{"Strand": "CCAGAGACCACCACCAGGCCCGCUCCCCACUGAGCCACUUAAGAUGAGCCCCUCAUUUGCACACAGUGACCACAUGAGCUUCCACUUACCUAACAACAGCCAUUUCAGGC", "RBNS enrichment (R)": 0.373}
{"Strand": "CGUCUUUCCGUUCGUUGGUUUUCUGUGUGUAAGGAGUAGCAUUGCUGUUGGCGCCUAACCUCGCGUGCACUGCAUUCUCAACCCCGUACCAGUGCAUCAUCAGAAGCCUU", "RBNS enrichment (R)": 0.229}
{"Strand": "AAGGAGCAUUGAGUUCUUUGGUUUUGUUUUGUUUUGUUUUUUUUUAAUCUCAACUAAAGAUAUAGUUCUGUGGUAGCCAUUGUUUUACAAUGAAAUAACUGCAACUAGAG", "RBNS enrichment (R)": 0.34}
{"Strand": "UAUAGAACCACACAAUAUUUAUCAUCAUUGGGUCAAUUUCUCCCCCUCUAUCAAGUGAGGAGAUUAAGGCUUAAAGAAAGGAAAGGACUUGCCAGCCACCACAGGGCUCA", "RBNS enrichment (R)": 0.364}
{"Strand": "CUCUUCACCUAAGUGUUUAUAACCAGCAGUACCCUGCUACAAGCCUUGGGUGCAGCCAUCACUGGAUUUUGAUCGUCAGGCCAGCAGGAUGGAUGACAUCUCAUUGAUAG", "RBNS enrichment (R)": 0.364}
{"Strand": "GUUGCCAAACAACUCCCUGAGGCCUCUCCGCACCACCUCAGCGGGCAGGAGGUCCCACCAUGUGGACAGACAUAGCCCAAGGAGGCACCACAGGUCUAUGUGUGCUGGGG", "RBNS enrichment (R)": 0.393}
{"Strand": "UAGUAGAGAAUACCACUGUGAGUCUUCUCCUUUUCAGAGCCAAACACAAAGCAGCCUGCGUGCAUUCUUUGAGGUGAGCAUUUAAUCACACACUUGAUGACAUUACAAAG", "RBNS enrichment (R)": 0.449}
{"Strand": "GACAAGGCAGAAAUGAACAUGAAAAGUCCCCAGGAGAGGGGAGCUGUGUAGUGAGGGAUACUGAGGGCAGUCCUGUGGCUGAGGGGCACAGAUUGAACUGCUGAACUAGU", "RBNS enrichment (R)": 1.66}
{"data": "Series 3", "target": "ABI1, truncated, D143A, DHFR fusion (Arabidopsis thaliana)", "method": "DHFR PCA, deep sequencing", "matrix": "yeast", "notes": "methotrexate growth selection, single substitutions", "with": "(+)-ABA 200 µM", "baseline": "wild-type fitted maximum", "reading": "higher = stronger binding", "starting sequence": "PYL1, truncated, DHFR fusion (Arabidopsis thaliana); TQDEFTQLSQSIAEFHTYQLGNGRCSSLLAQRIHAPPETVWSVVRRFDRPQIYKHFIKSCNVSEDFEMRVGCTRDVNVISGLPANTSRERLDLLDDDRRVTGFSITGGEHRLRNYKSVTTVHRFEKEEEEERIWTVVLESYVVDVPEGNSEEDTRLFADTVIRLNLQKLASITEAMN; partner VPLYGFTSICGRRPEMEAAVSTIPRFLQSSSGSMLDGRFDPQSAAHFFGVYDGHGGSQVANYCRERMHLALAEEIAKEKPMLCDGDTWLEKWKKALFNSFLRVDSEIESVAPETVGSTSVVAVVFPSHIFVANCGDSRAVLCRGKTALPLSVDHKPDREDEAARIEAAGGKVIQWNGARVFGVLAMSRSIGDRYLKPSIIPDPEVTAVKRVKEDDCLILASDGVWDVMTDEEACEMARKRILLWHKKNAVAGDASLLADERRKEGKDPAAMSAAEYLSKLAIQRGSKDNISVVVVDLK"}
{"Change": "D153Q", "relative binding score [%]": 82.6}
{"Change": "H110Y", "relative binding score [%]": 3.71}
{"Change": "N61T", "relative binding score [%]": 102}
{"Change": "V136H", "relative binding score [%]": 50.3}
{"Change": "E14T", "relative binding score [%]": 91.6}
{"Change": "N61M", "relative binding score [%]": 98}
{"Change": "V136M", "relative binding score [%]": 101}
{"Change": "H16G", "relative binding score [%]": 11.1}
{"Change": "V137E", "relative binding score [%]": 3.77}
{"Change": "V62P", "relative binding score [%]": 81.2}
{"Change": "H16K", "relative binding score [%]": 20}
{"Change": "R32S", "relative binding score [%]": 89.9}
{"Change": "W134I", "relative binding score [%]": 103}
{"Change": "V40N", "relative binding score [%]": 9.38}
{"Change": "S59F", "relative binding score [%]": 83.4}
{"Change": "A30H", "relative binding score [%]": 106}
{"Change": "L8R", "relative binding score [%]": 65.1}
{"Change": "T39N", "relative binding score [%]": 96.8}
{"data": "Series 4", "target": "Fragile X messenger ribonucleoprotein 1, C-terminal low-complexity region (Fmr1, Mus musculus, UniProt P35922)", "method": "RNA Bind-n-Seq", "molecule type": "RNA", "matrix": "in vitro", "tested at": "200 nM", "notes": "whole 134-nt RNA, ends assumed", "with": "150 mM LiCl", "baseline": "input library", "reading": "higher = stronger binding", "all molecules": "7-deaza-guanosine replaces G", "constant ends, left off below": "GGGAGUUCUACAGUCCGACGAUC … UGGAAUUCUCGGGUGUCAAGG"}
{"Strand": "UCAAGUCCUGUGCUACACAUCGUAUGUACCGAAUCGGGAAAGGGAGGGUUUGGGAAAGUAUUAUGUUACGCCGUUCGGAUCUGCACUUCC", "log2 enrichment": -0.734}
{"Strand": "UGGCCCUGGUGGCAUGCGGGGAGGAAGAGGUGGCCUCAUGGAUCGUGGUGGUCCCGGUGGAAUGUUCAGAGGUGGCCGUGGUGGAGACAA", "log2 enrichment": 0.0105}
{"Strand": "CAAGUCCUGUGCUACACAUCGUAUGUACCGAAUCGGUUUGGUUUUUUUGGAAAGGAAAGUAUUAUGUUACGCCGUUCGGAUCUGCACUUC", "log2 enrichment": -1.15}
{"Strand": "ACCAUGCAGGUGGUCAUCUUUGGGAAGUGGGGCAAGGGGGGGAUAGGGAGGGGGGUAACACUUUGGGAACAGGUGGUCCCAGGUCGUUUC", "log2 enrichment": 1.33}
{"Strand": "UUGUAUUAAGACAACGCUCCUCGACUUAGAUGCCUUGGCAAGACAUUUGGCUGACUGUAUUCGAAGGUAAAAUUUGAUGUGAAAUUGACA", "log2 enrichment": -0.302}
{"Strand": "UCUUCAGAGGCCCCACAGUAUCAAAUAUCCGCCUGGCUGGAUUAGAGUAUGUUCUGCACUUCACUGCACUGAAUGGGAAGAUUUACUUUC", "log2 enrichment": 0.793}
{"Strand": "GCAGGAAGUAAAAACAAAUGGAAAUGCUUCGGAUAGUGGCAGGGGUGGGGGUUGCUAAGGAAAGGGUGGGAUGGGAGUGGGUAGAGAGUU", "log2 enrichment": 1.24}
{"Strand": "GCAGGAAGUAAAAACAAAUGGAAAUGCUUCGGAUAGUGGCAGGGGUGGGGGUUGCUAAGUAAAGGGUGGGAUGGGAGUGGGUAAAGAGUU", "log2 enrichment": 1.73}
{"Strand": "GCAGGAAGUAAAAACAAAUGGAAAUGCUUCGGAUAGUGGCAGGGGUGUGGGUUGCUAAGGAAAGGGUGGGAUGGGAGUGGGUAAAGAGUU", "log2 enrichment": 1.6}
{"Strand": "UCCUCAAGUCCUGUGCUACACAUCGUAUGUACCGAAUCGGCGGGGCGGGCGGAAAGUAUUAUGUUACGCCGUUCGGAUCUGCACUUCCAG", "log2 enrichment": 0.695}
{"Strand": "GUCCUGUGCUACACAUCGUAUGUACCGAAUCGGGGAAAAAGGGGUUUUUGGGGAGGGGAAAGUAUUAUGUUACGCCGUUCGGAUCUGCAC", "log2 enrichment": -0.761}
{"data": "Series 5", "cell line": "yeast with cyclin D2-Cln2 chimera", "read-out": "cell growth", "action": "binder", "method": "competitive growth deep sequencing", "molecule type": "peptide", "tested at": "concentration not given", "notes": "peptide tiling library", "reading": "direction not given"}
{"Sequence": "QYQVVDDIVSKLVFDF", "growth enrichment score": 0.523}
{"Sequence": "RSLKLDGLLEEN", "growth enrichment score": -0.166}
{"Sequence": "KPHVSDEEEEEPPFYH", "growth enrichment score": 0.671}
{"Sequence": "VEEEFFALRKRTPSAG", "growth enrichment score": 0.572}
{"Sequence": "LRRKLFLDGNGSIS", "growth enrichment score": -1.57}
{"Sequence": "EAAPPTQEAQGETEPT", "growth enrichment score": 0.677}
{"Sequence": "DVSERGYVILPNDYFE", "growth enrichment score": 0.199}
{"Sequence": "GLPDFVFQQQPVESEA", "growth enrichment score": 0.145}
{"Sequence": "ALLRRLQDVANDRGSH", "growth enrichment score": 2.61}
{"Sequence": "RDLFDCDFGDLTPLDF", "growth enrichment score": 0.212}
{"Sequence": "IQKKLRFEDTLEFVGF", "growth enrichment score": 0.545}
{"Sequence": "CFRCLLFSFSGRSGVE", "growth enrichment score": -1.04}
{"note": "Repeated from above (series 1):"}
{"Strand": "CCGTGCTA", "E-score": -0.145}
{"Strand": "AGGATGCA", "E-score": 0.0976}
{"Strand": "CGGCCTTA", "E-score": 0.176}
{"Strand": "CCAACTCG", "E-score": 0.0315}
{"Strand": "CCGCCGAG", "E-score": 0.249}
{"Strand": "CTAGCCAA", "E-score": 0.0315}
